Measurements of several laboratories.
Parts stem from different laboratories: compare values within a part only. Changes are numbered by the printed parent chain.

Block 1
Target: CCNB1, cyclin fold, Cln2 fusion (human)
Method: yeast growth competition, sequencing
Matrix: yeast
Notes: strong parent motif
Relative to: not given
Direction: higher = stronger binding
Starting sequence: PKN2 docking peptide (human); VSAVQKLDFSDTM; partner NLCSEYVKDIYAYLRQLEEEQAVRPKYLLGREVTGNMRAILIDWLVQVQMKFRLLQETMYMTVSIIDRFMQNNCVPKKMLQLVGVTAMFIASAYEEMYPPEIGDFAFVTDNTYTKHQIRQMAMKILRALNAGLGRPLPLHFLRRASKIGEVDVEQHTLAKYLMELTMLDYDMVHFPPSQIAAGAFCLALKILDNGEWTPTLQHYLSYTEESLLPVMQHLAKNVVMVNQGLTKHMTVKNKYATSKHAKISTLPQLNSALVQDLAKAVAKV
`CSAVQKLDFSDTM [V1C]` — result for “normalised enrichment score”: 2.26.
`VSPVQKLDFSDTM [A3P]`: “normalised enrichment score” 1.48.
`VSAVQKLVFSDTM [D8V]` — result for “normalised enrichment score”: 1.37.
Under “normalised enrichment score”, `VSACQKLDFSDTM [V4C]` is recorded as 0.844.
Under “normalised enrichment score”, `VSAVQKLDFSDDM [T12D]` is recorded as 2.5.
Under “normalised enrichment score”, `VSGVQKLDFSDTM [A3G]` is recorded as -0.233.
`ASAVQKLDFSDTM [V1A]`: “normalised enrichment score” 1.76.
Under “normalised enrichment score”, `VSAVQKLDMSDTM [F9M]` is recorded as -0.0753.
`VSAVQKLGFSDTM [D8G]` — result for “normalised enrichment score”: 0.758.
`VSAVQGLDFSDTM [K6G]` — result for “normalised enrichment score”: 0.821.
Under “normalised enrichment score”, `VSAVQELDFSDTM [K6E]` is recorded as 0.274.
For `VSAVQKLDFSDTA [M13A]`, “normalised enrichment score” read 1.57.
`VSAVQKLDFSDQM [T12Q]`: “normalised enrichment score” 1.41.
For `YSAVQKLDFSDTM [V1Y]`, “normalised enrichment score” read 2.55.
`VSIVQKLDFSDTM [A3I]`: “normalised enrichment score” 2.98.
`VSAVQKIDFSDTM [L7I]` — result for “normalised enrichment score”: 0.121.
Under “normalised enrichment score”, `VSAYQKLDFSDTM [V4Y]` is recorded as 0.225.
Under “normalised enrichment score”, `VSAVQPLDFSDTM [K6P]` is recorded as -0.0896.
For `VSAVQKLQFSDTM [D8Q]`, “normalised enrichment score” read 1.07.
Under “normalised enrichment score”, `VAAVQKLDFSDTM [S2A]` is recorded as 1.92.
Under “normalised enrichment score”, `VSAVQFLDFSDTM [K6F]` is recorded as 0.74.
`VSAVQWLDFSDTM [K6W]` — result for “normalised enrichment score”: 0.757.
`VSAVQKLDFSFTM [D11F]`: “normalised enrichment score” 0.83.
For `VSAVQKLDLSDTM [F9L]`, “normalised enrichment score” read 0.543.
For `VSAVQKLDQSDTM [F9Q]`, “normalised enrichment score” read 0.223.

Block 2
Target: Histone acetyltransferase KAT6A, winged helix 2, GST fusion (KAT6A, Homo sapiens, UniProt Q92794, residues 85-181)
Method: protein binding microarray
Form: double-stranded DNA, one strand shown
Matrix: in vitro
Concentration: not given
Notes: 8-mer, flanks averaged, mean of 2 arrays, mostly near background
Relative to: not given
Direction: higher = stronger binding
Construct (chain): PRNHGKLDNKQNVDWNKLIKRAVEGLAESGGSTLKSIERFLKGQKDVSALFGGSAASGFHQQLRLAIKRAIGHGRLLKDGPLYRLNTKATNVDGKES
For `CGACCACA`, the E-score was -0.0361.
The E-score of `GTGGGCAA` is reported as -0.117.
The E-score of `ACCGTCAT` is reported as -0.112.
The E-score of `GAGTGACC` is reported as -0.14.
`GCGCCGCC` gave an E-score of 0.299.
`TAGAACCA` gave an E-score of -0.264.
The E-score of `AGTTCATG` is reported as 0.108.
`ATGGTCCA` gave an E-score of -0.0523.
The E-score of `GCGGCGAA` is reported as 0.268.
For `TATTGCGA`, the E-score was 0.058.
The E-score of `CATCGGAC` is reported as 0.124.
`ACTTAGTA` has an E-score of -0.0184.
`GAATATTA` gave an E-score of 0.0525.
The E-score of `CCGGTTAG` is reported as -0.0415.
`GGCAGAAA` has an E-score of 0.315.
With `GACTATAC` the E-score was 0.0328.
For `CCTGGAAC`, the E-score was -0.056.
The E-score of `ACCAAAGC` is reported as 0.137.
`ATGTCACA` gave an E-score of 0.0036.

Block 3
Target: TAR DNA-binding protein 43, full length, His tag (TARDBP, Homo sapiens, UniProt Q13148, residues 1-414)
Method: RNA Bind-n-Seq
Form: RNA
Matrix: in vitro
Concentration: 20 nM
Notes: 6-mer, flanks averaged, single round
Added: 150 mM LiCl
Relative to: input library
Direction: higher = stronger binding
`ACCCCC`: “6-mer enrichment (R)” 1.26.
Under “6-mer enrichment (R)”, `ACCAUA` is recorded as 0.871.
`CGCUGA`: “6-mer enrichment (R)” 0.855.
`CGCUGU` — result for “6-mer enrichment (R)”: 0.962.
Under “6-mer enrichment (R)”, `UCUCAC` is recorded as 0.83.
`UGUCAU`: “6-mer enrichment (R)” 0.955.
`CACUGA` — result for “6-mer enrichment (R)”: 0.83.
For `CCGAAA`, “6-mer enrichment (R)” read 0.803.
`UGCACA` — result for “6-mer enrichment (R)”: 0.926.
Under “6-mer enrichment (R)”, `UGUGUC` is recorded as 1.31.
For `GCUAUG`, “6-mer enrichment (R)” read 0.981.
`GUGGCA` — result for “6-mer enrichment (R)”: 1.09.
`AAAUCA` — result for “6-mer enrichment (R)”: 0.816.
For `ACAAUC`, “6-mer enrichment (R)” read 0.806.
`UACUUU`: “6-mer enrichment (R)” 1.01.
For `CUAGGC`, “6-mer enrichment (R)” read 0.871.
Under “6-mer enrichment (R)”, `UCCAUA` is recorded as 0.879.
Under “6-mer enrichment (R)”, `UCUUAG` is recorded as 0.881.
`CCAUGA` — result for “6-mer enrichment (R)”: 0.857.
`UUGCGC` — result for “6-mer enrichment (R)”: 1.03.
Under “6-mer enrichment (R)”, `UUCAUU` is recorded as 1.
For `CUAUCG`, “6-mer enrichment (R)” read 0.838.
`AAGGUU` — result for “6-mer enrichment (R)”: 0.925.
`CGACAU` — result for “6-mer enrichment (R)”: 0.814.
`AUGUCC`: “6-mer enrichment (R)” 0.939.

Block 4
Target: Interferon regulatory factor 7, full length, phosphomimetic (IRF7, Homo sapiens, UniProt Q92985, residues 1-503, S471D/S472D/S475D/S476D/S477D/S483D/S484D/S487D)
Chain of UniProt Q92985 (whole entry, unmodified, looked up): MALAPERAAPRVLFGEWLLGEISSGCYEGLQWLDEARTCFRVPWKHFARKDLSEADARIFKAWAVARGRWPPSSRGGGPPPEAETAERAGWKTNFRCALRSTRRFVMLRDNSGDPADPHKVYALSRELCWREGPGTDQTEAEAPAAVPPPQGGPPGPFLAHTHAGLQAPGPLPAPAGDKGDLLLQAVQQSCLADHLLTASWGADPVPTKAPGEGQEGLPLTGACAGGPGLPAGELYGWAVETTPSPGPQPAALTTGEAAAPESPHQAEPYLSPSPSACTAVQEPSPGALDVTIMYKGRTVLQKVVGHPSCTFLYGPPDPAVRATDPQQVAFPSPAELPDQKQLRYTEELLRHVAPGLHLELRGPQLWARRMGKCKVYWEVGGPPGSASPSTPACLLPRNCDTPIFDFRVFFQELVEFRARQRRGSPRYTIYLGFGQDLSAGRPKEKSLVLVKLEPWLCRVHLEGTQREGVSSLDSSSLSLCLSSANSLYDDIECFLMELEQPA
Method: protein-binding microarray
Form: double-stranded DNA, one strand shown
Matrix: in vitro
Concentration: 2200 nM top
Notes: 60-bp whole probe
Added: salmon DNA 0.4 mg/ml
Relative to: random background probes
Direction: higher = stronger binding
All sequences stand within: GCCTAGCAC … GTCTTGATTCGCTTGACGCTGCTG
For `GACGATTACGGGACTGGAGACGTGCTA`, “fitted relative affinity” read -0.212 z-score.
For `GACGTACTGGGGTATCGGGACGTGCTA`, “fitted relative affinity” read -0.248 z-score.
`TTAGAACTGGGGTTTGGATTAGTGCTA`: “fitted relative affinity” -0.0692 z-score.
For `GACGCACTGGGGACTGGGGACGTGCTA`, “fitted relative affinity” read -0.258 z-score.
Under “fitted relative affinity”, `TCAAATCTGTGTTATTAAACTGTGCTA` is recorded as 0.066 z-score.
`GACGAACTGGGGACTGGAGAAGTGCTA`: “fitted relative affinity” -0.0566 z-score.
Under “fitted relative affinity”, `GACGATTTCTGTATCGAGACGTGCTAG` is recorded as 1.48 z-score.
`GACGGACTGGGGTAACGGGACGTGCTA` — result for “fitted relative affinity”: -1.11 z-score.
`GACGATCTCAGTCTCGAGGCGTGCTAG` — result for “fitted relative affinity”: 0.652 z-score.
`TTAGAACTGAGTTTCGATTAGTGCTAG`: “fitted relative affinity” 3.42 z-score.
Under “fitted relative affinity”, `GACGGTTTCGGTATCGGAACGTGCTAG` is recorded as 7.43 z-score.
Under “fitted relative affinity”, `GACGATATCGGCTATCGAGACGTGCTA` is recorded as -0.24 z-score.
Under “fitted relative affinity”, `GGCTTGACGTCATCCCCTTGGTGCTAG` is recorded as -0.371 z-score.
Under “fitted relative affinity”, `GAAGGTTCCGGTTTCGGGACGTGCTAG` is recorded as 5.56 z-score.
`GACGGTTTCCTACTGCTGATGTGCTAG`: “fitted relative affinity” 1.77 z-score.
`GACCGTTTCCTTTCCCTGACGTGCTAG`: “fitted relative affinity” 3.87 z-score.
`CCAATTCTCTTTTCACTTTCGTGCTAG`: “fitted relative affinity” 5.31 z-score.
`TTAGGAATGGGTATCGGTTAGTGCTAG`: “fitted relative affinity” 0.0661 z-score.
For `TTAGCACTGGGGACTGGGTTAGTGCTA`, “fitted relative affinity” read -0.746 z-score.

Block 5
Target: RING finger protein unkempt homolog, zinc fingers 1-6, SBP tag (UNK, Homo sapiens, UniProt Q9C0B0, residues 30-357)
Chain of UniProt Q9C0B0 (30-357, looked up): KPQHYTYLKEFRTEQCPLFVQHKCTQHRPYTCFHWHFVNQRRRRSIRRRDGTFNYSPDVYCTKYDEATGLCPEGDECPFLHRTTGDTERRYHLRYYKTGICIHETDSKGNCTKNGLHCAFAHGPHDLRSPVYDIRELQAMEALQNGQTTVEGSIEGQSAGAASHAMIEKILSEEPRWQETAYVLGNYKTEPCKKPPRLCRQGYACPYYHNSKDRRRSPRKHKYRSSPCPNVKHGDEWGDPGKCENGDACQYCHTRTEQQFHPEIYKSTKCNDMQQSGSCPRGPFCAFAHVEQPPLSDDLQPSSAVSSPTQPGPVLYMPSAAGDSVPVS
Method: RNA Bind-n-Seq
Form: RNA
Matrix: in vitro
Concentration: 100 nM
Notes: RNA with constant flanks, vertebrate orthologous sites, ends assumed
Relative to: input RNA pool
Direction: higher = stronger binding
All sequences stand within: GGGAGUUCUACAGUCCGACGAUC … CAACAGAGGAUUGAGCAUCA
`CCAUUACAGUAAGUAGAGUGGGUUCUCCCCUCCACUUCUCCCAAGAAGAAAAUGCCCAAAUAGAUUGUUUAUGCAUCUGAUUAUAUUGUUCAGUUUUUGUUUCCUAUUAUUUUUACAUAU` gave a bound/input enrichment of 0.892 ratio.
`GUUGUGACCCAUUUAACAUACACAAAAAACUAGCCAAAAAAAAUUUGCAUGUAAUUGACUUAGAUGAUGCCACUUUUCUGAGUGCAAAAUUUGGAAGGCAGCUUGUACCUGGUUGGAAGC` has a bound/input enrichment of 1.28 ratio.
With `CUACUAUAAACAACUCAGGGCAGUAUUCUCGAUAUCCUUACAGUAACCUUAAUCAGGGAUUAGUUAAUAAUACAGGGAUGAAUCAGAAUUUAGGCCUUACAAAUAACACUCCAAUGAAUC` the bound/input enrichment was 0.878 ratio.
`CUAGUUCACAACUGACUGGUUCACAGCAUUCCUUACAGAGUUAUCUAUCAAAUGCAAGUGUAGUUAAUUUUCAGGAAACAACCAGGCAGUCAUCUUUAUCCUGUAGCCCAACUGGAGAUU` gave a bound/input enrichment of 0.962 ratio.
For `UGCACACGCCGCUAUCACCAGUGUCAACUAUCGCUUUCCAAAUUUCAUUAUGAAUCAUUUUAGUGCUUCCUAUCUCCUACCUUUCCUACCACUUUCAAUGAUGAAAAAUAGUCUAAGUUC`, the bound/input enrichment was 1.83 ratio.
For `GCCAUCUGAUUGGAUAAAGACCGUCCCAAGUUACAACCAAACAAACAGUUCCAUGGACUUUAGAAAUUAUAUGAUGCGAGAUGAAAAUCUGGAACCACUGCCCAAAAACUGGGAAAUGGC`, the bound/input enrichment was 0.719 ratio.
With `UUUUCUUUUUUUGCACUGACAGUGUUUGUCUUGAGGAUCUUCUGAGGAAGAGGGGUGCUGUGGCAGUGGCACCUGGGUGCCUGGCCUCCAGUGUCCCAUCCCCUUCACCCCACUUGGCUC` the bound/input enrichment was 0.219 ratio.
`AGGGAGAAGAGCUCACAAACUCAAAGGAGAACUAGGAAAGAAUUUCUAAUAGUUAAAAGCUAGGAAAGAUUAGGACAACUUUACAAAUGAGCAAUUAAAAAAAAAAAGGAUAUGGAACCU` gave a bound/input enrichment of 0.816 ratio.

Some of these lines once more (block 1):
`CSAVQKLDFSDTM [V1C]` — result for “normalised enrichment score”: 2.26.
`VSPVQKLDFSDTM [A3P]`: “normalised enrichment score” 1.48.
`VSAVQKLVFSDTM [D8V]` — result for “normalised enrichment score”: 1.37.
Under “normalised enrichment score”, `VSACQKLDFSDTM [V4C]` is recorded as 0.844.
Under “normalised enrichment score”, `VSAVQKLDFSDDM [T12D]` is recorded as 2.5.
Under “normalised enrichment score”, `VSGVQKLDFSDTM [A3G]` is recorded as -0.233.
`ASAVQKLDFSDTM [V1A]`: “normalised enrichment score” 1.76.
Under “normalised enrichment score”, `VSAVQKLDMSDTM [F9M]` is recorded as -0.0753.
`VSAVQKLGFSDTM [D8G]` — result for “normalised enrichment score”: 0.758.
`VSAVQGLDFSDTM [K6G]` — result for “normalised enrichment score”: 0.821.
Under “normalised enrichment score”, `VSAVQELDFSDTM [K6E]` is recorded as 0.274.
For `VSAVQKLDFSDTA [M13A]`, “normalised enrichment score” read 1.57.
`VSAVQKLDFSDQM [T12Q]`: “normalised enrichment score” 1.41.
For `YSAVQKLDFSDTM [V1Y]`, “normalised enrichment score” read 2.55.
